# Measurements collected from several papers.
# A part holds a random share of what one study measured. Positions count from the first letter of the parent shown.

# Block 1
# Target: RNA binding protein fox-1 homolog 2, RRM domain, GST-SBP tag (RBFOX2, Homo sapiens, UniProt O43251-10, residues 100-194)
# Method: RNA Bind-n-Seq
# Form: RNA
# Sample: in vitro
# Concentration: 365 nM
# Notes: natural RNA segment, single round, ends assumed
# Baseline: no-protein control
# Reading: higher = stronger binding
# Construct (chain): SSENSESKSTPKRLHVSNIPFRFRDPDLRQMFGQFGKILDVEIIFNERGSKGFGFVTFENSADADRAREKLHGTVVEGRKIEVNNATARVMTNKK
Oligonucleotide,RBNS enrichment (R)
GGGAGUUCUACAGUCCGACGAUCUUUUUAAACUCUUAUUUAAGAGUAAGUUGAGUUGAACUGAAUCUUCCUUGUCUUAGUAACAUUGUACAAAUAGUGGCUUAUUUUUAAGUUGUAAUGCCUCCUGAUGGAUAUGGAAUUCUCGGGUGCCAA,0.883
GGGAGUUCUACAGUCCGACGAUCUGUCCCUGUGCCUAACACCAGCGUUUGAGGGGCUGGCCUUCCUGCCCUACAGAGGUCUCUGCCGGCUCUUUCCUUGCUCAACCAUGGCUGAAGGAAACCAGUGCAACAGCUGGAAUUCUCGGGUGCCAA,0.19
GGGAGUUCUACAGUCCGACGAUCUCCCCCGCACAGGUCCUGCUUCACUCACAUCCUCACCCGCUGCCAAGGUGGCGGUUUGUGCUUGCAGGGCAGCACUGCCCACCACCUGCCAGGGAGGAGCCUGAGCAGCUUGGAAUUCUCGGGUGCCAA,0.37
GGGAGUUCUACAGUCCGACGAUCGUUUUGUUUUUUCGAUGUGAAUAGAGAACUCGGACAUUUUGCUGCUAAACAAUCUCCCCUCCCUCACCCUACUUGCACUGCUGUGGGUUUUUUAAAGAGAAACAGAACCAUGGAAUUCUCGGGUGCCAA,1.06
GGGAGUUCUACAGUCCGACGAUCUUUCUGGGAUUAUACAAAUUCCUUUUUAUAUAAAAGUAUAUUGUUUAAAACAGUAGCUAUAGCCAUUAACCAAAGGACAGAUGAUAUAUAUAUAUAUGAUAUAUAUAUAUUGGAAUUCUCGGGUGCCAA,0.603
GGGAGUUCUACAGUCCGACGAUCAUUUUUUACUUUUAUAGAUUUUAAAACUAUGAUCCUUUAUAUGUGUGUUUUGGGGGAGCUAUGAUAAGUUUUAUGGCAAACGGUUGGUAUUGUUAACUUUUUAUUGUCAUUGGAAUUCUCGGGUGCCAA,1.32
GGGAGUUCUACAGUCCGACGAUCUUUGUGUGUAUCCCCUCCGUGAAAUCCAGCCAAUUAUCAGGGUAGAAGAUGGGUGCAUGAGAAUCUUGGCUCAGCCAAAGCCCCUUCAUGGAAAUACAAGCCAUAAAAUUUGGAAUUCUCGGGUGCCAA,0.924
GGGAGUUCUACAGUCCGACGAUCACCCAGAGCUUGCCUGCCAGGGCUUGGUUCUCCAUUUCCACUGCUGACAUUUGAUUUCCAGUGUAUUUAAAUUACUCCGUGGUAAAUUUCAUUGUCUUUUCCUGUGUAAAUGGAAUUCUCGGGUGCCAA,0.798
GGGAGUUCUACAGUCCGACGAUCUCCAUUGCUCUUGGCUUCAUGGUGUUCCUGGAAGGCAGAUGAGCUGGUCAUUUCGCCUGGGACUCGGCACCUUUCCGAGUGCAGCUGGAGGGAUCUGAGCGCAGGAAGACUGGAAUUCUCGGGUGCCAA,0.786
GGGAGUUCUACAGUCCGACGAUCUAAAGACAAGCAGGAGGGUCGACAUGGACUGAAUCACCCUCUGCAGCUGGGAGGGCUCUUCUGGGCGUCCGGGCAGCUGCAGCUGAGAGGACUUUCACACCAUAAGGAGAUGGAAUUCUCGGGUGCCAA,0.385
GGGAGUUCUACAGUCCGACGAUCAAGAAUCAAUAGCAGCAUCUAAUCUCCCAGGGCUCCCUCCCACCAGCACCUGUGGUGGCUGCAAGUGGAAUCCUGGGGCCAAGGCUGCAGCUCAGGGCAAUGGCAGACCAUGGAAUUCUCGGGUGCCAA,0.582
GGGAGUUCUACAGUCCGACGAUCAGCUAUGUUUCUGAUGCCAAUCACACUAGCACCAUUACAUGCUGGGCAGGUGCUGGGCAGCACAGACGCUGGAGACCUGUUUGCCACUGCUUGUCCCCCAUUCAUCUUUGUGGAAUUCUCGGGUGCCAA,0.508

# Block 2
# Target: Histone acetyltransferase KAT6A, both winged helices, GST fusion (KAT6A, Homo sapiens, UniProt Q92794, residues 1-181)
# Method: protein binding microarray
# Form: double-stranded DNA, one strand shown
# Sample: in vitro
# Concentration: not given
# Notes: 8-mer, flanks averaged, mean of 2 arrays, mostly near background
# Baseline: not given
# Reading: higher = stronger binding
# Construct (chain): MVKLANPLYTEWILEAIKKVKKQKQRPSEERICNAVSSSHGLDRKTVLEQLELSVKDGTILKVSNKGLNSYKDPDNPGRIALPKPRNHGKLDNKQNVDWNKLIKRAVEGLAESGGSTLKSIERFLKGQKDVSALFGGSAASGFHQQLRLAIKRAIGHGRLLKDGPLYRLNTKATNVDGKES
Oligonucleotide,E-score
GAGGTTAA,-0.093
ATGGTAAT,-0.0984
CGTCCTTC,-0.0108
CCGAGGTC,0.0529
AGCCTTCC,-0.106
ACTCTGTA,0.00044
ATTAGGTG,-0.177
CACTTGAA,-0.134
ACAAGGTC,-0.163
CCGAAATC,0.0657
CATATTAA,-0.0585
CGATTGCA,0.047
CCTGTCGC,0.0713
ATAGACAT,-0.14
CAATGGGA,-0.054
CAGGCCGG,0.113
AAGTCTAA,-0.0867
GACGAACA,0.102
ACCAGACT,-0.254
AGACCCTC,-0.0491
ACACGAGC,-0.0191
GAACTTAC,0.0349
ACACGTGC,0.0931
GAAGGATA,-0.206

# Block 3
# Target: RING finger protein unkempt homolog, zinc fingers 1-6, SBP tag (UNK, Homo sapiens, UniProt Q9C0B0, residues 30-357)
# Chain of UniProt Q9C0B0 (30-357, looked up): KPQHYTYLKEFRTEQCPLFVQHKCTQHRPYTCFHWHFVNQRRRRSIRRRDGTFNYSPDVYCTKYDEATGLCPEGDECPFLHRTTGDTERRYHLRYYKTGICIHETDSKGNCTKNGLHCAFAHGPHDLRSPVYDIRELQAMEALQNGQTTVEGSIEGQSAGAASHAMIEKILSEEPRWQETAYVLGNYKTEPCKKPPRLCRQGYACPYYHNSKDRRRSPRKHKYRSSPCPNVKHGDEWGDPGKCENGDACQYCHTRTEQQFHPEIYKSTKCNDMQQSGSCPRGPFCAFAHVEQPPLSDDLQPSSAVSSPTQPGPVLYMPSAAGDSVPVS
# Method: RNA Bind-n-Seq
# Form: RNA
# Sample: in vitro
# Concentration: 100 nM
# Notes: RNA with constant flanks, vertebrate orthologous sites, ends assumed
# Baseline: input RNA pool
# Reading: higher = stronger binding
Oligonucleotide,bound/input enrichment [ratio]
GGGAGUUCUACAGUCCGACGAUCUGUUGUUCAAGCACUGUGUUCCAGACCGUGUCUGACCUUAGUGUGACCUAGGAGAGUUUCUAGUUUUGUUUUACCGAGAUCCUGCACGGCAGGCGCACGGCAGCGGAGGGCCACAUCCGCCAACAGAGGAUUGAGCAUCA,0.612
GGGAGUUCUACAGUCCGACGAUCCAGCUGAUUCGCUCAUCGGGAGAGCUGCACAUAUAGCUGUUCUUGAUUCAGAAAUCUUCUUAGAGAAAUUCUUUCUGGUUGCUGCCCUUAAAUAUUUUCAAUAGGAUAAAAACGCUGUUACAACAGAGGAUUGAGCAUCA,0.801
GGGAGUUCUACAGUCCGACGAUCGUAGUCCUCCACUUAGGGUCAGCCUCAAGUAUACGGAAUUUCUGAAAAAUGUAUUAUAUCUAUCUAGUUAAGUUGAGUUUGAUAUUUUUUACUAGACUGUAAGCAAAGAUGGCAUCUUAUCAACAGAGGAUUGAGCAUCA,0.617
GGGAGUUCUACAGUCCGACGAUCAAAACUCAGGUAUUAUUUAUUUCGCAAUUAUCAAUUGUAUAAAUCUAAUUUAUUAUCAGAUGGUCAUUUAAAAGAAAAGAUUUUUACCUUGACAGGCACUUCCUUUCUUAGCUUCUCAUACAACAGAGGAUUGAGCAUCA,0.379
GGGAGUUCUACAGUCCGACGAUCAGCCAUUUUUCCCACGUUUUCUGUAAAUAAUGGAUAAUCUUUUUUUAAAAAAAUUAUUUUUAAUGCUGUUUUAACAAUGUGGAUAGAUCAUAAAUGUACUUGCUGAAUUCAAUCAUUUUUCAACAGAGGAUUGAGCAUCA,0.231
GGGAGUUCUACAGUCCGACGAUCGCAUUUGCCGCUAUCACCAAAAGCAAACUUCCACUUUUCAAAAUUCAUUCAGAGCCGUUUUAGUGUUUCCUGUUCCGUACCCUUCCCACGACUUUCUCUGAUGAAAUAUCCUGUUCUCCUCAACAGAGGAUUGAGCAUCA,0.806
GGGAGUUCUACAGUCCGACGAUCUAUUCAAUUGAUUUAAAUUAUUUAGAUCAGAAGUUAUUACUGUGUAUGUUUACUUUCACGCAGCUUAUAUUUUUCAUCUGUUUUUGCAAAAUGUCAGUUGUGUGUGCUUCCUUAUGUACCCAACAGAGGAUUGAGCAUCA,0.149
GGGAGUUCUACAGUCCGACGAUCCCGAAAGGCCAAAUUCCCUCCUCCCUUCUACUGCUUCUACCAACUGGAAGCACAGAAAACUAGAAUUUCAUUUAUUUUGUUUUUUAAAAAUAUACGUUGAUUUCUUGUAACAUCCAAUAGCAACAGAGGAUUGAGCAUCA,0.653
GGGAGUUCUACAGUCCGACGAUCAUAUUUAAAAUUCCAGUAGUUAUAUUUAAUGAGCAUACCUACGUUCCCUUUUCAUUAAAGUAGCUUUCAUUUCUAUUAUUCCGUUUUACUGAUAGGAACAAAUAGGAGGUCUGUGUGAGCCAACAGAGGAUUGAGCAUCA,0.683
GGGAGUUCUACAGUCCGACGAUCAUCACUCUAAUAAUUGUAAUCUGAAUAAAGUGUAACAUUGUGUAGCCUUUUUGUAUAAAAUAGACAAAUAGAAAAUGGUCCAAUUAGUUUCCUUUUUAAUAUGCUUAAAAUAAGCAGGUGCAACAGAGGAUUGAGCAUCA,0.923
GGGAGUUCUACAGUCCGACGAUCUGAACUUUUAGCUUUCAAGUUGUGGCUGUUUUUUGUUUUUGUUUUUGUUUUUGUUUUCUUUAGAAUUUUUCCCUGUUUCCCACCUUCUCUUCCCCUGUUGCCAAGGUCUAACUCAUGGAUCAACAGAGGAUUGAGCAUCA,2

# Block 4
# Target: Prothrombin, mature alpha-thrombin (F2, Homo sapiens, UniProt P00734)
# Method: aptamer microarray, sandwich
# Form: DNA with 2'F-ANA
# Sample: in vitro
# Concentration: 200 nM
# Notes: whole 15-mer aptamer, many near background
# Added: Cy3 exosite-II aptamer, 400 nM
# Reading: higher = stronger binding
# Oligonucleotide: GGTTGGTGTGGTTGG
Modification,mean fluorescence intensity [a.u.]
2'F-ANA at 1 2 4 5 10 11 14,49
2'F-ANA at 5 9 10 13 15,262
2'F-ANA at 3 5 6 8 9 10 12 15,61.3
2'F-ANA at 1 3 6 8 9 12 14,110
2'F-ANA at 1 7 10 11 12 14 15,43
2'F-ANA at 1 2 5 6 7 10 11 13 15,88.4
2'F-ANA at 1 2 3 5 7 9 10 12 14 15,170
2'F-ANA at 1 2 3 5 6 7 9 10 11 12 15,52.9
2'F-ANA at 8 9 10 12 14,105
2'F-ANA at 1 2 3 4 6 7 10 11 14 15,50.9
2'F-ANA at 3 6 8 9 12,1040
2'F-ANA at 2 3 4 5 9 12,199
2'F-ANA at 1 3 5 6 11 12 14,43.3
2'F-ANA at 1 2 3 4 5 6 8 9 13 14 15,64.6
2'F-ANA at 1 5 6 7 8 11 15,51.6
2'F-ANA at 1 5 6 8 11 12 14 15,47.8
2'F-ANA at 2 6 10 13 14 15,74.3
2'F-ANA at 3 7 8 9 15,1140
2'F-ANA at 1 3 8 15,426
2'F-ANA at 1 2 3 4 7 8 10 12,77.8
2'F-ANA at 2 6 7 8 9 10 14,92.7
2'F-ANA at 1 2 4 7 11 13 14,46.2
2'F-ANA at 3 4 5 8 10 11 15,50.9
2'F-ANA at 4 5 6 8 12 14,52.5

# Block 5
# Target: CCNB1, cyclin fold, Cln2 fusion (human)
# Method: yeast growth competition, sequencing
# Sample: yeast
# Notes: weak parent motif
# Baseline: not given
# Reading: higher = stronger binding
# Starting sequence: RBL1 docking peptide (human); GSAKRRLFGEDPP
Substitution,normalised enrichment score
K4R,0.328
R6P,-0.132
K4F,1.17
R5P,0.314
L7N,1.19
K4I,1.06
E10K,0.225
S2M,0.58
G9F,1.97
K4H,0.748
P13V,1.2
L7P,0.677
L7A,0.393
G1P,0.422
A3M,-1.18
A3Q,0.357
R5A,0.752

# A few entries again (block 2):
Oligonucleotide,E-score
CAGGCCGG,0.113
AAGTCTAA,-0.0867
GACGAACA,0.102
ACCAGACT,-0.254
AGACCCTC,-0.0491
ACACGAGC,-0.0191
GAACTTAC,0.0349
